{"data": "Measured values of several laboratories", "note": "Compare with care: the assays were run in different laboratories. ± marks the error that the study gave."}
{"SMILES": "O=C(Nc1ccccc1)C1CCN(C(=O)Oc2cccnc2)CC1", "assay": "measured: skin disorders", "test system": "healthy women", "setting": "oral, 60 mg, 7 days", "endpoint": "subjects with adverse event", "result": "0%"}
{"SMILES": "C[C@]1(CO)Cc2ncn(-c3ccc(C#N)c(Cl)c3)c2C(=O)O1", "test system": "healthy humans", "setting": "10 mg, fasted", "endpoint": "drug-related Fatigue incidence", "result": "0%"}
{"SMILES": "Fc1ccc([C@@H]2CCNC[C@H]2COc2ccc3c(c2)OCO3)cc1", "assay": "ECG, Fridericia correction", "test system": "healthy participants", "setting": "oral, dose not given, -1 h", "endpoint": "QTc interval", "result": "394 ± 16 ms"}
{"SMILES": "O=c1oc(-c2cccc(F)c2)ns1", "test system": "RPMI medium", "setting": "concentration not given, 37 °C, spontaneous hydrolysis", "endpoint": "hydrolysis half-life", "result": "33.9 min"}
{"SMILES": "COc1ccc2nc3cc(Cl)ccc3c(Nc3cc(CN4CCCC4)c(O)c(CN4CCCC4)c3)c2n1", "test system": "mouse, blood", "setting": "intraperitoneal, 14 mg/kg", "endpoint": "haemoglobin", "result": "151 g/L"}
{"SMILES": "CO[C@H]1C[C@@H]2CC[C@@H](C)[C@@](O)(O2)C(=O)C(=O)N2CCCC[C@H]2C(=O)O[C@H]([C@H](C)C[C@@H]2CC[C@@H](OC(=O)NCCOCCOCCOCCOCCOCCOCCOCCOCCC(=O)N3CCc4cc(Cn5nc(-c6ccc7oc(N)nc7c6)c6c(N)ncnc65)ccc4C3)[C@H](OC)C2)C[C@@H](O)[C@H](C)/C=C(\\C)[C@@H](O)[C@@H](OC)C(=O)[C@H](C)C[C@H](C)/C=C/C=C/C=C/1C", "test system": "patients with advanced solid tumours", "setting": "intravenous, 8 mg weekly, grade 3 or higher", "endpoint": "fatigue incidence", "result": "0%"}
{"SMILES": "COc1cc2c(Oc3ccc4[nH]c(C)cc4c3F)ccnc2cc1OCC1(N)CC1", "test system": "paediatric refractory sarcoma patients", "setting": "12 mg", "endpoint": "grade 3 QTc prolongation", "result": "0%"}
{"SMILES": "COc1ncccc1-c1cnn2ccc(N3CCN(C(=O)OC(C)C)CC3)nc12", "test system": "rat, CCI mechanical allodynia model, plasma", "setting": "oral, 3 mg/kg, 240 min", "endpoint": "free drug concentration", "result": "14.6 nM"}
{"SMILES": "O=C(O)CCCOc1ccc(F)cc1-c1cc(-c2ccccc2C(F)(F)F)n(-c2ccccc2)n1", "assay": "measured: UN", "test system": "Crl:CD(SD) rats, female, blood", "setting": "iv, 25 µg/kg, 14 days", "endpoint": "blood chemistry", "result": "14.1 ± 1.3 mg/dL"}
{"SMILES": "CCS(=O)(=O)Nc1ccc(Oc2ccc(F)cc2F)c(-c2cn(C)c(=O)c3[nH]ccc23)c1", "assay": "fatal multiple organ dysfunction syndrome", "test system": "human, relapsed/refractory AML", "setting": "oral, dose not given", "endpoint": "treatment-emergent adverse events", "result": "5%"}
{"SMILES": "CC(C)(c1ccc(O)cc1)c1ccc(O)cc1", "assay": "ultrafiltration", "test system": "cow milk whey", "setting": "200 nM nominal in whole milk", "endpoint": "final permeate concentration", "result": "9.02 nM"}
{"SMILES": "Nc1ncnc2c1ncn2[C@@H]1O[C@@H]2COP(=O)([S-])O[C@@H]3[C@H](O)[C@@H](COP([O-])(=S)O[C@H]2[C@H]1O)O[C@H]3n1cnc2c(N)ncnc21.[Na+].[Na+] (stereo partly drawn)", "test system": "non-tumor-bearing mice, blood", "setting": "intravenous, 1 mg/kg, toxicity study", "endpoint": "haematocrit", "result": "24.5 ± 1.61%"}
{"SMILES": "COc1ncnn2ccc(-c3cnc4nc(C)n(Cc5nnc([C@@H](C)F)o5)c4c3)c12", "test system": "human patients", "setting": "oral, dose not given, grade 1 adverse drug reaction", "endpoint": "incidence of Diarrhea", "result": "7.1%"}
{"SMILES": "CN1CC[C@@H](c2c(O)cc(O)c3c(=O)cc(-c4ccc(C(F)(F)F)cc4Cl)oc23)[C@@H]1CO", "assay": "measured: Hypotension", "test system": "relapsed B-cell malignancies", "setting": "oral, 150 mg, grade 3-4, intermittent dosing", "endpoint": "patients with adverse event", "result": "0%"}
{"SMILES": "Cc1noc(C)c1Cn1cc(N2C(=O)CN(Cc3cccc(O)c3)C2=O)cn1", "test system": "CD-1 mouse, male, bone marrow", "setting": "1000 mg/kg/day, 24 h", "endpoint": "micronucleated PCE", "result": "0.8 per 2000 PCE"}
{"SMILES": "CC1CCN(CCCNC(=O)c2cc(Sc3ccc(F)cc3)nc3ccccc23)CC1", "tested on": "Vero-E6", "assay": "CellTiter-Glo ATP", "setting": "concentration not given, 72 h, retest 8-point duplicates", "how to read": "baseline: DMSO 0%, hyamine -100%, more negative, more toxic", "endpoint": "cytotoxicity efficacy", "result": "0%"}
{"SMILES": "CC(=O)c1c(C)c2cnc(Nc3ccc(C4CCN(CCS(C)(=O)=O)CC4)cn3)nc2n(C2CCCC2)c1=O", "test system": "human, dose-escalation trial, plasma", "setting": "oral, 150 mg twice daily, day 1, single dose", "endpoint": "clearance", "result": "1540 mL/min"}
{"SMILES": "O=c1nc(NO)ccn1[C@@H]1O[C@H](CO)[C@@H](O)[C@H]1O", "test system": "rat maternal blood dialysate", "setting": "25 ng/mL, more than 4 weeks, -20 °C, low concentration, with: molnupiravir 5 ng/mL", "endpoint": "long-term stability", "result": "101.2 ± 0.58%"}
{"SMILES": "C[C@H](C(=O)N[C@H]1COc2ccccc2[C@@H]1S(C)(=O)=O)c1ccc(F)cc1", "test system": "Sprague-Dawley rat, male, brain", "setting": "oral, 3 mg/kg, 1 h", "endpoint": "free brain concentration over EC50", "result": "63 fold"}
{"SMILES": "CC1(C)[C@H](C(=O)OCc2cccc(Oc3ccccc3)c2)[C@@H]1C=C(Cl)Cl", "assay": "measured: CYP2C19", "test system": "human, age 1 year, recombinant human CYP2C19", "setting": "0.1 µM", "endpoint": "enzyme contribution to clearance", "result": "3.11%"}
{"SMILES": "O=c1cc(-c2ccc(O)c(O)c2)oc2cc(O)cc(O)c12", "test system": "male Sprague-Dawley rat, obese", "setting": "oral, 100 mg/kg of neohesperidin, 0 to 12 h", "endpoint": "faecal excreted amount", "result": "32.2 ± 11.2 ng"}
{"SMILES": "NCCCC[C@@H]1NC(=O)[C@@H](Cc2c[nH]c3ccccc23)NC(=O)[C@H](c2ccccc2)NC(=O)[C@@H]2C[C@@H](OC(=O)NCCN)CN2C(=O)[C@H](Cc2ccccc2)NC(=O)[C@H](Cc2ccc(OCc3ccccc3)cc2)NC1=O", "test system": "healthy volunteers, male", "setting": "1950 µg twice daily, 0.0 h, post hoc", "endpoint": "placebo-corrected QTcF change", "result": "6.7 ms"}
{"SMILES": "CC(C)C[C@H](NC(=O)[C@H](CCCCN)NC(=O)OCC1c2ccccc2-c2ccccc21)C(=O)N[C@H](C(=O)N[C@@H](Cc1ccccc1)C(=O)N[C@@H](Cc1ccccc1)C(=O)N[C@@H](CCCCN)C(=O)NCC(=O)N[C@@H](Cc1ccccc1)C(=O)N[C@@H](C)C(=O)N[C@@H](Cc1c[nH]c2ccccc12)C(=O)N[C@@H](CC(N)=O)C(=O)N[C@H](C(=O)N[C@H]1CSSC[C@@H](C(=O)N[C@@H](Cc2c[nH]cn2)C(=O)N[C@@H](CCCNC(=N)N)C(=O)N[C@@H](CCCNC(=N)N)C(=O)N[C@@H](C)C(=O)N[C@@H](CC(N)=O)C(N)=O)NC(=O)[C@H](C(C)C)NC(=O)[C@H](CCCNC(=N)N)NC(=O)[C@H](C(C)C)NC(=O)CNC(=O)[C@H](CC(N)=O)NC(=O)[C@H](CCCNC(=N)N)NC(=O)[C@H](Cc2ccc(O)cc2)NC(=O)[C@H](C(C)C)NC1=O)C(C)C)C(C)C", "assay": "circular dichroism, measured: Parallel", "test system": "PBS", "setting": "80 µM, pH 7.4", "endpoint": "secondary structure content", "result": "3.25%"}
{"SMILES": "CCN(CCO)CCCC(C)Nc1ccnc2cc(Cl)ccc12 (stereo not drawn)", "assay": "measured: Constipation grade 1", "test system": "newly diagnosed glioblastoma patients", "setting": "oral, 800 mg/dose, with radiotherapy and temozolomide", "endpoint": "patients with adverse event", "result": "33%"}
{"SMILES": "CC(C)[N+]1(C)[C@@H]2CC[C@H]1C[C@@H](OC(=O)C(CO)c1ccccc1)C2 (stereo partly drawn)", "test system": "human", "setting": "inhaled", "endpoint": "lung deposited fraction", "result": 0.07}
{"SMILES": "COCCCNC(=O)C1CCN(Cc2cc3ccccc3n2Cc2cccc(Cl)c2)CC1", "tested on": "Vero-E6", "assay": "CellTiter-Glo ATP", "setting": "concentration not given, 72 h, retest 8-point duplicates", "how to read": "baseline: DMSO 0%, hyamine -100%, more negative, more toxic", "endpoint": "cytotoxicity efficacy", "result": "0%"}
{"SMILES": "CCc1ccc(CC/C=C/c2ccc3c(c2)C(=O)CC3)cc1", "test system": "Sprague-Dawley rat, male", "setting": "oral, 30 mg/kg/day, 14 days", "endpoint": "Hemoglobin", "result": "149 g/L"}
